Results pooled from the literature.
± marks the error that the study gave.
Organism: Escherichia coli

Substance	assay	test system	setting	MIC
CC[C@H](C)[C@H](N)C(=O)N[C@@H](CC(N)=O)C(=O)N[C@@H](CC(C)C)C(=O)N[C@@H](CCCCN)C(=O)N[C@@H](C)C(=O)N[C@H](C(=O)N[C@@H](C)C(=O)N[C@@H](C)C(=O)N[C@@H](CC(C)C)C(=O)N[C@@H](C)C(=O)N[C@@H](CCCCN)C(=O)N[C@@H](CCCCN)C(=O)N[C@@H](CC(C)C)C(=O)N[C@@H](CC(C)C)C(=O)O)[C@@H](C)CC	broth microdilution	K12	37 °C	25 µM
CC[C@H](C)[C@H](NC(=O)[C@H](Cc1ccc(O)cc1)NC(=O)[C@@H](NC(=O)[C@@H]1CCCN1C(=O)[C@H](CCCNC(=N)N)NC(=O)[C@H](CC(N)=O)NC(=O)[C@H](CC(N)=O)NC(=O)CN)C(C)C)C(=O)N1CCC[C@H]1C(=O)N[C@@H](CCC(N)=O)C(=O)N1CCC[C@H]1C(=O)N[C@@H](CCCNC(=N)N)C(=O)N1CCC[C@H]1C(=O)N1CCC[C@H]1C(=O)N[C@@H](Cc1c[nH]cn1)C(=O)N1CCC[C@H]1C(=O)N[C@@H](CCCNC(=N)N)C(=O)N[C@@H](CC(C)C)C(N)=O	bacterial growth	DH5α	37 °C	0.1 µM
CC[C@H](C)[C@H](NC(=O)[C@H](Cc1ccc(O)cc1)NC(=O)[C@@H](NC(=O)[C@@H]1CCCN1C(=O)[C@H](CCCNC(=N)N)NC(=O)[C@H](CC(N)=O)NC(=O)[C@H](CC(N)=O)NC(=O)CN)C(C)C)C(=O)N1CCC[C@H]1C(=O)N[C@@H](CCC(N)=O)C(=O)N1CCC[C@H]1C(=O)N[C@@H](CCCNC(=N)N)C(=O)N1CCC[C@H]1C(=O)N1CCC[C@H]1C(=O)N[C@@H](Cc1c[nH]cn1)C(=O)N1CCC[C@H]1C(=O)N[C@@H](CCCNC(=N)N)C(=O)N[C@@H](CC(C)C)C(=O)O	broth microdilution	BW25113, 20% M9 medium		> 0.384 µM
CC[C@H](C)[C@H](NC(=O)[C@H](CCCCN)NC(=O)[C@H](CCC(=O)O)NC(=O)[C@H](CCCCN)NC(=O)[C@H](CO)NC(=O)[C@H](CCCCN)NC(=O)[C@H](CCCNC(=N)N)NC(=O)[C@H](Cc1ccccc1)NC(=O)[C@H](Cc1ccccc1)NC(=O)[C@H](CC(=O)O)NC(=O)CNC(=O)[C@H](CC(C)C)NC(=O)[C@@H](N)CC(C)C)C(=O)NCC(=O)N[C@@H](CCCCN)C(=O)N[C@@H](CCC(=O)O)C(=O)N[C@@H](Cc1ccccc1)C(=O)N[C@@H](CCCCN)C(=O)N[C@@H](CCCNC(=N)N)C(=O)N[C@H](C(=O)N[C@H](C(=O)N[C@@H](CCC(N)=O)C(=O)N[C@@H](CCCNC(=N)N)C(=O)N[C@H](C(=O)N[C@@H](CCCCN)C(=O)N[C@@H](CC(=O)O)C(=O)N[C@@H](Cc1ccccc1)C(=O)N[C@@H](CC(C)C)C(=O)N[C@@H](CCCNC(=N)N)C(=O)N[C@@H](CC(N)=O)C(=O)N[C@@H](CC(C)C)C(=O)N[C@H](C(=O)N1CCC[C@H]1C(=O)N[C@@H](CCCNC(=N)N)C(=O)N[C@H](C(=O)N[C@@H](CCC(=O)O)C(=O)N[C@@H](CO)C(=O)O)[C@@H](C)O)C(C)C)[C@@H](C)CC)C(C)C)[C@@H](C)CC	broth microdilution	DC2 outer membrane mutant		3 µM
CC[C@H](C)[C@H](NC(=O)[C@H](CCCNC(=N)N)NC(=O)CNC(=O)[C@H](CC(C)C)NC(=O)[C@H](Cc1ccccc1)NC(=O)[C@H](CCC(N)=O)NC(=O)[C@H](Cc1ccccc1)NC(=O)[C@@H](N)C(C)C)C(=O)N[C@H](C(=O)N[C@@H](Cc1c[nH]cn1)C(=O)N[C@@H](Cc1c[nH]cn1)C(=O)N[C@H](C(=O)NCC(=O)N[C@@H](CC(N)=O)C(=O)N[C@@H](Cc1ccccc1)C(=O)N[C@H](C(=O)N[C@@H](Cc1c[nH]cn1)C(=O)NCC(=O)N[C@@H](Cc1ccccc1)C(=O)N[C@@H](CO)C(=O)N[C@@H](Cc1c[nH]cn1)C(=O)N[C@H](C(=O)N[C@@H](Cc1ccccc1)C(=O)O)C(C)C)C(C)C)C(C)C)[C@@H](C)CC	broth microdilution	K12	37 °C	> 100 µM
CC[C@H](C)[C@H](NC(=O)[C@H](Cc1ccc(O)cc1)NC(=O)[C@@H](NC(=O)[C@@H]1CCCN1C(=O)[C@H](CCCCN)NC(=O)[C@H](CC(N)=O)NC(=O)[C@H](CC(N)=O)NC(=O)CN)C(C)C)C(=O)N1CCC[C@H]1C(=O)N[C@@H](CCC(N)=O)C(=O)N1CCC[C@H]1C(=O)N[C@@H](CCCNC(=N)N)C(=O)N1CCC[C@H]1C(=O)N1CCC[C@H]1C(=O)N[C@@H](CCCNC(=N)N)C(=O)N1CCC[C@H]1C(=O)N[C@@H](CCCNC(=N)N)C(=O)N[C@@H](CC(C)C)C(=O)O	broth microdilution	BW25113 parental, Mueller-Hinton broth	18 h, 37 °C	0.048 ± 0.011 µM
CC(C)C[C@@H](N)C(=O)N[C@@H](C(=O)N[C@H](Cc1c[nH]c2ccccc12)C(=O)N[C@H](CCCCN)C(=O)N[C@H](CC(C)C)C(=O)N[C@H](Cc1c[nH]c2ccccc12)C(=O)N[C@H](Cc1c[nH]c2ccccc12)C(=O)N[C@H](CCCNC(=N)N)C(=O)N[C@H](CC(C)C)C(=O)N[C@H](CCCNC(=N)N)C(=O)N[C@H](Cc1c[nH]c2ccccc12)C(=O)N[C@H](CC(C)C)C(=O)N[C@H](CCCCN)C(N)=O)C(C)C	broth microdilution	ATCC 25922, LB medium	16 to 20 h, 37 °C	50 µg/mL
CC[C@H](C)[C@H](NC(=O)[C@H](CCCNC(=N)N)NC(=O)[C@@H](N)CCCNC(=N)N)C(=O)N[C@@H](CCCNC(=N)N)C(=O)N1CCC[C@H]1C(=O)N[C@@H](CCCNC(=N)N)C(=O)N1CCC[C@H]1C(=O)N1CCC[C@H]1C(=O)N[C@@H](CCCNC(=N)N)C(=O)N[C@@H](CC(C)C)C(=O)N1CCC[C@H]1C(=O)N[C@@H](CCCNC(=N)N)C(=O)N1CCC[C@H]1C(=O)N[C@@H](CCCNC(=N)N)C(=O)N1CCC[C@H]1C(=O)N[C@@H](CCCNC(=N)N)C(=O)N1CCC[C@H]1C(=O)N[C@@H](CC(C)C)C(=O)N1CCC[C@H]1C(=O)N[C@@H](Cc1ccccc1)C(=O)N1CCC[C@H]1C(=O)N[C@@H](CCCNC(=N)N)C(=O)N1CCC[C@H]1C(=O)NCC(=O)N1CCC[C@H]1C(=O)N[C@@H](CCCNC(=N)N)C(=O)N1CCC[C@H]1C(=O)N[C@H](C(=O)N1CCC[C@H]1C(=O)N[C@@H](CCCNC(=N)N)C(=O)N1CCC[C@H]1C(=O)N[C@@H](CC(C)C)C(=O)N1CCC[C@H]1C(=O)N[C@@H](Cc1ccccc1)C(=O)N1CCC[C@H]1C(=O)O)[C@@H](C)CC	alamarBlue	SQ110	overnight, 37 °C	1.5 µM
CC(C)C[C@H](NC(=O)[C@H](CCCNC(=N)N)NC(=O)[C@@H]1CCCN1C(=O)[C@H](CCCNC(=N)N)NC(=O)[C@@H]1CCCN1C(=O)[C@@H]1CCCN1C(=O)[C@H](CCCNC(=N)N)NC(=O)[C@@H]1CCCN1C(=O)[C@H](CCC(N)=O)NC(=O)[C@@H]1CCCN1C(=O)[C@H](CCCNC(=N)N)NC(=O)[C@H](Cc1ccc(O)cc1)NC(=O)[C@@H](NC(=O)[C@@H]1CCCN1C(=O)[C@H](CCCNC(=N)N)NC(=O)[C@H](CC(N)=O)NC(=O)[C@H](CC(N)=O)NC(=O)CN)C(C)C)C(=O)O		JW0368 ΔsbmA	18 h, 37 °C, 12.5% Mueller-Hinton broth	0.096 ± 0.023 µM
CC[C@H](C)[C@H](NC(=O)[C@H](Cc1c[nH]c2ccccc12)NC(=O)[C@@H](N)CCCNC(=N)N)C(=O)N[C@@H](CCCNC(=N)N)C(=O)N[C@@H](Cc1c[nH]c2ccccc12)C(=O)N[C@H](C(=O)N[C@@H](Cc1c[nH]c2ccccc12)C(=O)N[C@@H](CCCNC(=N)N)C(=O)N[C@@H](CCCCN)C(=O)N[C@@H](CCCCN)C(=O)N[C@@H](CC(C)C)C(=O)N[C@@H](CCCNC(=N)N)C(N)=O)C(C)C		ATCC 25922	1 h, 37 °C, non-dividing cells in PBS	≥ 100 µg/mL
CO/N=C(\C(=O)N[C@@H]1C(=O)N2C(C(=O)O)=C(COC(C)=O)CS[C@H]12)c1csc(N)n1		AmpC-overproducing clinical isolate	alone without inhibitor, second isolate	8 µg/mL
CC[C@H](C)[C@H](NC(=O)[C@H](Cc1c[nH]cn1)NC(=O)[C@H](CCCCN)NC(=O)[C@@H](NC(=O)[C@@H](NC(=O)[C@H](CC(=O)O)NC(=O)[C@H](Cc1ccccc1)NC(=O)[C@H](Cc1c[nH]c2ccccc12)NC(=O)CN)C(C)C)C(C)C)C(=O)N[C@@H](C)C(=O)N[C@@H](CCCCN)C(=O)N[C@@H](CCCNC(=N)N)C(=O)N[C@@H](Cc1ccccc1)C(N)=O	broth microdilution	K12	37 °C	12.5 µM
CC[C@H](C)[C@H](NC(=O)[C@H](CCCNC(=N)N)NC(=O)[C@H](CCCCN)NC(=O)[C@H](CC(C)C)NC(=O)[C@H](Cc1ccccc1)NC(=O)[C@H](CCCNC(=N)N)NC(=O)[C@H](C)NC(=O)[C@@H](N)C(C)C)C(=O)N[C@H](C(=O)N[C@@H](CCCCN)C(=O)N[C@@H](C)C(=O)N[C@@H](CC(C)C)C(=O)N[C@@H](Cc1ccccc1)C(N)=O)[C@@H](C)CC	broth microdilution	ATCC 25922, LB medium	16 to 20 h, 37 °C	6.25 µg/mL
PACAP(6-38)		ATCC 25922		1.36 µM

Repeated from above:
Substance	assay	test system	setting	MIC
CC[C@H](C)[C@H](NC(=O)[C@H](Cc1c[nH]cn1)NC(=O)[C@H](CCCCN)NC(=O)[C@@H](NC(=O)[C@@H](NC(=O)[C@H](CC(=O)O)NC(=O)[C@H](Cc1ccccc1)NC(=O)[C@H](Cc1c[nH]c2ccccc12)NC(=O)CN)C(C)C)C(C)C)C(=O)N[C@@H](C)C(=O)N[C@@H](CCCCN)C(=O)N[C@@H](CCCNC(=N)N)C(=O)N[C@@H](Cc1ccccc1)C(N)=O	broth microdilution	K12	37 °C	12.5 µM
CC[C@H](C)[C@H](NC(=O)[C@H](CCCCN)NC(=O)[C@H](CCC(=O)O)NC(=O)[C@H](CCCCN)NC(=O)[C@H](CO)NC(=O)[C@H](CCCCN)NC(=O)[C@H](CCCNC(=N)N)NC(=O)[C@H](Cc1ccccc1)NC(=O)[C@H](Cc1ccccc1)NC(=O)[C@H](CC(=O)O)NC(=O)CNC(=O)[C@H](CC(C)C)NC(=O)[C@@H](N)CC(C)C)C(=O)NCC(=O)N[C@@H](CCCCN)C(=O)N[C@@H](CCC(=O)O)C(=O)N[C@@H](Cc1ccccc1)C(=O)N[C@@H](CCCCN)C(=O)N[C@@H](CCCNC(=N)N)C(=O)N[C@H](C(=O)N[C@H](C(=O)N[C@@H](CCC(N)=O)C(=O)N[C@@H](CCCNC(=N)N)C(=O)N[C@H](C(=O)N[C@@H](CCCCN)C(=O)N[C@@H](CC(=O)O)C(=O)N[C@@H](Cc1ccccc1)C(=O)N[C@@H](CC(C)C)C(=O)N[C@@H](CCCNC(=N)N)C(=O)N[C@@H](CC(N)=O)C(=O)N[C@@H](CC(C)C)C(=O)N[C@H](C(=O)N1CCC[C@H]1C(=O)N[C@@H](CCCNC(=N)N)C(=O)N[C@H](C(=O)N[C@@H](CCC(=O)O)C(=O)N[C@@H](CO)C(=O)O)[C@@H](C)O)C(C)C)[C@@H](C)CC)C(C)C)[C@@H](C)CC	broth microdilution	DC2 outer membrane mutant		3 µM
